Measured values collected from several papers.
Lines come from different studies, so protocols differ. ± marks the error that the study gave.

Compound = CCOC(=O)c1ccccc1-c1c2ccc(=O)cc-2oc2cc(OC3C=C(C)C(=O)O3)ccc12 (centres unmarked); target or system = Phelipanche ramosa; assay = seed germination, stimulant; system = seeds; measurement = EC50; value = 0.0077 µM
Compound = CCOc1nc(N)ncc1-c1cn([C@@H]2O[C@](F)(CO)[C@@H](O)[C@H]2O)cn1; target or system = Dengue virus; assay = viral replication; system = Huh-7, DENV-2; setting = 48 h; measurement = EC50; value = > 100 µM
Compound = CC(C)C[C@H](NC(=O)[C@H](Cc1cccc2ccccc12)NC(=O)OCc1ccccc1)C(=O)N[C@H](CS)C[C@@H]1CCNC1=O; target or system = Norwalk virus; assay = replicon RNA level, RT-qPCR; system = HG23 cells, GI.1 replicon; setting = 96 h; measurement = EC50; value = > 10 µM
Compound = Cc1cc(OC(C)C)ccc1C(=O)C(C)(C)NC(=O)c1sccc1C; target or system = Botrytis cinerea; assay = mycelial growth on agar; system = B05.10; setting = 120 h, 20 °C; measurement = EC50; value = 6 ng/mL
Compound = COC(=O)N[C@H](C(=O)N1CCC[C@H]1c1ncc(-c2ccc(-c3ccc(-c4cnc([C@@H]5CCCN5C(=O)[C@@H](NC(=O)OC)C(C)C)[nH]4)cc3)cc2)[nH]1)C(C)C; target or system = Human alphaherpesvirus 2; assay = multi-cycle viral growth; system = Vero; measurement = EC50; value = > 11 µM
Compound = CC(C)C(=O)OC[C@@]1(F)O[C@@H](n2cnc(-c3cnc[nH]c3=O)c2)[C@H](OC(=O)C(C)C)[C@@H]1OC(=O)C(C)C; target or system = Dengue virus; assay = viral replication; system = Huh-7, DENV-4; setting = 48 h; measurement = EC50; value = > 100 µM
Compound = Cc1ccc(N(c2ccc(NC(=O)CN(C)c3ccccc3N3CCCC3=O)cc2)C(C)C)cc1; target or system = Plasmodium falciparum; assay = ring-stage invasion, nanoluciferase; system = 3D7 NanoLuc late schizonts; setting = 4 h pulse; measurement = EC50; value = 0.006 µM
Compound = Cn1cc(-c2ccc(-c3cncc(Cl)c3N3CCC4(CCNC4=O)CC3)cc2)cn1; target or system = COLO 205; assay = gene expression, microarray, measured: SLC8A1 mRNA; setting = concentration not given, 6 h; scale = baseline: untreated cells; measurement = log2 fold change; value = 1.54
Compound = COc1ncncc1-c1cn([C@@H]2O[C@](F)(COC(=O)C(C)C)[C@@H](OC(=O)C(C)C)[C@H]2OC(=O)C(C)C)cn1; target or system = Dengue virus; assay = viral replication; system = Huh-7, DENV-4; setting = 48 h; measurement = EC50; value = 18.8 µM
Compound = COCC(=O)N1CCC[C@H](C(=O)NCc2nc(-c3ccccc3)cs2)C1; target or system = Plasmodium falciparum; assay = SYBR Green; system = 3D7; setting = 72 h; measurement = EC50; value = 0.089 ± 0.026 µM
Compound = CC(C)C[C@H](NC(=O)[C@H](Cc1cccc2ccccc12)NC(=O)OCc1ccccc1)C(=O)N[C@H](CO)CNC(=O)N1CCC1; target or system = Norwalk virus; assay = replicon RNA level, RT-qPCR; system = HG23 cells, GI.1 replicon; setting = 96 h; measurement = EC50; value = > 10 µM
